Results pooled from the literature.
Compare with care: the assays were run in different laboratories.
CA9: Carbonic anhydrase 9 (CA9, Homo sapiens, UniProt Q16790)
PDGFRA: Platelet-derived growth factor receptor alpha (PDGFRA, Homo sapiens, UniProt P16234)
Sequence of UniProt P16234 (whole entry, looked up): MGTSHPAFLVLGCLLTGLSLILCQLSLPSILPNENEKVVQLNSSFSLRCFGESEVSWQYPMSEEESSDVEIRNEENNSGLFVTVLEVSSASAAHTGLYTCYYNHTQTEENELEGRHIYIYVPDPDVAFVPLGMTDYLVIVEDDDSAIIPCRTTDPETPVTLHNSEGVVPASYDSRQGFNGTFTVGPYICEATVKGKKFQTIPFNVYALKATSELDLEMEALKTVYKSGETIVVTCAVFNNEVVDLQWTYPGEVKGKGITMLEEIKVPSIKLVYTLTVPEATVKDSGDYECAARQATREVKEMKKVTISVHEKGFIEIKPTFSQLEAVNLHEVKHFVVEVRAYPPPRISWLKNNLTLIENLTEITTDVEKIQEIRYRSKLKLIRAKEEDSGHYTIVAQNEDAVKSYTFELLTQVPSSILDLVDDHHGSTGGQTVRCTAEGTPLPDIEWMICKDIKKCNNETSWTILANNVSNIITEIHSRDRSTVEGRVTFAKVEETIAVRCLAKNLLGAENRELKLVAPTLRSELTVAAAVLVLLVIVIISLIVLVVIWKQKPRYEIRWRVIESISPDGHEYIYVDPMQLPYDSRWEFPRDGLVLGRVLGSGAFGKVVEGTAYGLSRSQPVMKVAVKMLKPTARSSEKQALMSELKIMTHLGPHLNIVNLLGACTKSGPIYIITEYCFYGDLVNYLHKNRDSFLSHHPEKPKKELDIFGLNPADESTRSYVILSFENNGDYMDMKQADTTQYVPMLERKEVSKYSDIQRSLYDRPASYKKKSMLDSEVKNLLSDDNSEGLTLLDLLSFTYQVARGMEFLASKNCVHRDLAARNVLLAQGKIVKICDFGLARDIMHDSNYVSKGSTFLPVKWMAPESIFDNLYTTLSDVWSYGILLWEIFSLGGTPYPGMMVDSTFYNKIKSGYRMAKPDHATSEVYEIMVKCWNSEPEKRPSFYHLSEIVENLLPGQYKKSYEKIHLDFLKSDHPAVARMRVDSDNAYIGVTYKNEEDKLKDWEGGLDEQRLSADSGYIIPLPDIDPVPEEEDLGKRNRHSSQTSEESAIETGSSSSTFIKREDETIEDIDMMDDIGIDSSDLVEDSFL
RPS6KA3 C-terminal kinase domain: Ribosomal protein S6 kinase alpha-3, C-terminal kinase domain (RPS6KA3, Homo sapiens, UniProt P51812)
Sequence of UniProt P51812 (whole entry, looked up): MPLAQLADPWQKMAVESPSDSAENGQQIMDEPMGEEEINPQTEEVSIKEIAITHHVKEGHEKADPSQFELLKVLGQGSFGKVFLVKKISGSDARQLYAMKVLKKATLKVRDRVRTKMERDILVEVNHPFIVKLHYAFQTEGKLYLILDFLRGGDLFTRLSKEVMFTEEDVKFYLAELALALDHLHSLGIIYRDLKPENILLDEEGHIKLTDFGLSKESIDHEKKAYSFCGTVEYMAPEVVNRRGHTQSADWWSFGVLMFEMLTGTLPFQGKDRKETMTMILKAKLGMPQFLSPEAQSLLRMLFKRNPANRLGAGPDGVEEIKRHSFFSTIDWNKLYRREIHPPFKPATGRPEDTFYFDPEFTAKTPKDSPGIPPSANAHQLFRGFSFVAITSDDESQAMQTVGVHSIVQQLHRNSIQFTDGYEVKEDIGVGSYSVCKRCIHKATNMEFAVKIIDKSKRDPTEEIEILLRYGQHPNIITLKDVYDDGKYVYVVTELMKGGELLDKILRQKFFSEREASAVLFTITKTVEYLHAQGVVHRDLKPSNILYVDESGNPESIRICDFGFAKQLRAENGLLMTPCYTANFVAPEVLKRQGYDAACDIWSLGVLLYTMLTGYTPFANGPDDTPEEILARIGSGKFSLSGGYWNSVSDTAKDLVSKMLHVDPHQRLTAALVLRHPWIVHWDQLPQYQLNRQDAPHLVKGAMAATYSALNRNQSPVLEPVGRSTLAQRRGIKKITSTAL
Sequence of UniProt O75914 (whole entry, looked up): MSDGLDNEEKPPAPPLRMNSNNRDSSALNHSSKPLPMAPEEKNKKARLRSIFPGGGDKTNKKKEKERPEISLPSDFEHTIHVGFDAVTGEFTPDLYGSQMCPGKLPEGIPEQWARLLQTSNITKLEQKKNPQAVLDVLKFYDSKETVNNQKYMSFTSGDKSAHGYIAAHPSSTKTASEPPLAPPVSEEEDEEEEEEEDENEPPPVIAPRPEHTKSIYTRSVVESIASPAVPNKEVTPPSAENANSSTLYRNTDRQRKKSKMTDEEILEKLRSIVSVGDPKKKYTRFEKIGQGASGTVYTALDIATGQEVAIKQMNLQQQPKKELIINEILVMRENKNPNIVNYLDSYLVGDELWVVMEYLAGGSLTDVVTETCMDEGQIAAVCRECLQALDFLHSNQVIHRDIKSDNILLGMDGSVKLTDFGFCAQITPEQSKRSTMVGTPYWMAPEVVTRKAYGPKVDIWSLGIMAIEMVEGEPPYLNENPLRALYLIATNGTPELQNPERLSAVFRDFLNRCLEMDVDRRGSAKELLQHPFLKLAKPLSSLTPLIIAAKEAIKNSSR

Compound	target	observed	action	technique	tested at	quantity	result
Cc1cc(C)n(-c2ccc(C(=O)N3CCC(C(=O)Nc4ccc(S(N)(=O)=O)cc4)CC3)cc2)n1	CA9	enzyme activity	inhibitor			IC50	37.2 nM
COc1cc(-c2cncc3c2CN(C)Cc2cc(N4CCNCC4)ccc2-3)cc(OC)c1OC	PDGFRA	enzyme activity	inhibitor		1 µM	remaining activity	94%
C=CC(=O)N1CCC(COCC(=O)N2CCN(c3nc(-c4cnc(N)nc4C(F)F)nc(N4CCOC[C@@H]4C)n3)CC2)CC1	RPS6KA3 C-terminal kinase domain	binding		competition with immobilised ligand	1 µM	remaining binding	82%
CCCCC(=O)Nc1ccc(-c2ccc3ncn(CCC)c(=O)c3c2)cn1	PDGFRA	binding		competition with immobilised ligand	0.5 µM	remaining binding	100%
[2H]c1c([2H])c([C@]2([2H])CCCN2C(=O)C(C)(C)Oc2ccc3cn[nH]c3c2)c([2H])c([2H])c1C([2H])([2H])[2H]	RPS6KA3 C-terminal kinase domain	binding		competition with immobilised ligand	1 µM	remaining binding	100%
CNc1ncc2c(/C=C/C(=O)N3CCC(OC)CC3)nn(Cc3cccc(C(F)(F)F)c3)c2n1	PDGFRA	enzyme activity	inhibitor	radiometric	1 µM	remaining activity	92%
C1=C/COCc2cc(ccc2OCCN2CCCC2)Nc2nccc(n2)-c2cccc(c2)COC/1	PAK3 (Homo sapiens, UniProt O75914)	binding			0.1 µM	remaining binding	100%
CC(OC(=O)c1cc(Cc2ccccc2)ccc1O)C(=O)Nc1ccc(S(N)(=O)=O)cc1 (centres unmarked)	CA9	enzyme activity	inhibitor			IC50	305 nM

A few entries again:
Compound	target	observed	action	technique	tested at	quantity	result
CNc1ncc2c(/C=C/C(=O)N3CCC(OC)CC3)nn(Cc3cccc(C(F)(F)F)c3)c2n1	PDGFRA	enzyme activity	inhibitor	radiometric	1 µM	remaining activity	92%
